# Measured values from different studies.
# “And” joins repeats or separate records; there may be more than shown. ± marks the error that the study gave.
# TOP2A: DNA topoisomerase 2-alpha (TOP2A, Homo sapiens, UniProt P11388)
# UniProt P11388, sequence (whole entry, looked up): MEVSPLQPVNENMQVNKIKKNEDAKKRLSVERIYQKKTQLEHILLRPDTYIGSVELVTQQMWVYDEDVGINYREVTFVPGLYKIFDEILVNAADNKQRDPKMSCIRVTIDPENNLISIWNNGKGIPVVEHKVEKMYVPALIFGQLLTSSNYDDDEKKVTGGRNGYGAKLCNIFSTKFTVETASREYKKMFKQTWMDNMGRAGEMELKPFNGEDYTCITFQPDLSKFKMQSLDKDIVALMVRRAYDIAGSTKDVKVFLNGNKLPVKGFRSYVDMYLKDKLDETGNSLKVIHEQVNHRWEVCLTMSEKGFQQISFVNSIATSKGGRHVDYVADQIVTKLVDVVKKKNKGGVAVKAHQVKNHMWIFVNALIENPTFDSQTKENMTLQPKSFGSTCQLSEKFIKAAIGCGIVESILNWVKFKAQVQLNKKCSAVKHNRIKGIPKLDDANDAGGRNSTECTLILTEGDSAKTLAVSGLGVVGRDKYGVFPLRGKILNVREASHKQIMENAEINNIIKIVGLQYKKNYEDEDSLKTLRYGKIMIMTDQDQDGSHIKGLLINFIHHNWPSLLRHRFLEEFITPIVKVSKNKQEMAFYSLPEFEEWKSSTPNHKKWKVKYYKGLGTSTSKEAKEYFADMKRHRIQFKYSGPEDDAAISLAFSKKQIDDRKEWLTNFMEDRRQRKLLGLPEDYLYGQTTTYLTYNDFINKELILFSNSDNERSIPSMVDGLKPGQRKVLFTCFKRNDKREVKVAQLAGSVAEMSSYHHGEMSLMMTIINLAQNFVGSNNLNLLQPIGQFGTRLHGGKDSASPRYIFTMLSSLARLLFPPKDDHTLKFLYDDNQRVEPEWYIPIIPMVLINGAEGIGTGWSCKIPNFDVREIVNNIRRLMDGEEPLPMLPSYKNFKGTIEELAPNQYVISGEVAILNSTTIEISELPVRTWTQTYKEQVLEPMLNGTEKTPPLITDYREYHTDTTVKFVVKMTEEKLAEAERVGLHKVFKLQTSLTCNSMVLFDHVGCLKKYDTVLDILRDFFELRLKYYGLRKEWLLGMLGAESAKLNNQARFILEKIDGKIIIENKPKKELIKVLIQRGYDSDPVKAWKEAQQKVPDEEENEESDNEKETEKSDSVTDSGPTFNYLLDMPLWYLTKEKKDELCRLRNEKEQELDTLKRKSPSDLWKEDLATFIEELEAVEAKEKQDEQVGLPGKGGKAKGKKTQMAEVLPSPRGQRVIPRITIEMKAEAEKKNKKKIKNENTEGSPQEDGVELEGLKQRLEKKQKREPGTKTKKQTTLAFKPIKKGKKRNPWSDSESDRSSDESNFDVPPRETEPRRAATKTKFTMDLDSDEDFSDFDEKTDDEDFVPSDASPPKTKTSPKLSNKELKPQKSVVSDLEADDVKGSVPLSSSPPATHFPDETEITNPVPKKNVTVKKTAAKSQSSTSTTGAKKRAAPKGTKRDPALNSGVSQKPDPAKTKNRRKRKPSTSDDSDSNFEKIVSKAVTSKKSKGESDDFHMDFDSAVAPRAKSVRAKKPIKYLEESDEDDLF
# BEST2: Bestrophin-2a (BEST2, Homo sapiens, UniProt Q8NFU1)
# UniProt Q8NFU1, sequence (whole entry, looked up): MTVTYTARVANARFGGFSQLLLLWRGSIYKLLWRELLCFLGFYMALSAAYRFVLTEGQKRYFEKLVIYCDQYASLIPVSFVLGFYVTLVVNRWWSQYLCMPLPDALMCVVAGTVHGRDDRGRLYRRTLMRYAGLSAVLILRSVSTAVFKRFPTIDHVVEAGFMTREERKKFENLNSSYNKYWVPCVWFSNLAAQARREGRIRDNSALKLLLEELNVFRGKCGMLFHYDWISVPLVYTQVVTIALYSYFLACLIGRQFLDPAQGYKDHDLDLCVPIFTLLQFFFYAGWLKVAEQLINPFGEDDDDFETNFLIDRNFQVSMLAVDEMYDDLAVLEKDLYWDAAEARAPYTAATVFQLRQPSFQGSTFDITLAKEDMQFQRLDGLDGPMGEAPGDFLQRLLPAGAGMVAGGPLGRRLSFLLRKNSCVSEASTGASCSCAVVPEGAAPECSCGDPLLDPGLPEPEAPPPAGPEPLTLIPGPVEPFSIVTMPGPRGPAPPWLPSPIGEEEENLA
# SETDB1 triple tudor domain: Histone-lysine N-methyltransferase SETDB1, triple tudor domain (SETDB1, Homo sapiens, UniProt Q15047)
# PKN1: Serine/threonine-protein kinase N1 (PKN1, Homo sapiens, UniProt Q16512)
# UniProt Q16512, sequence (whole entry, looked up): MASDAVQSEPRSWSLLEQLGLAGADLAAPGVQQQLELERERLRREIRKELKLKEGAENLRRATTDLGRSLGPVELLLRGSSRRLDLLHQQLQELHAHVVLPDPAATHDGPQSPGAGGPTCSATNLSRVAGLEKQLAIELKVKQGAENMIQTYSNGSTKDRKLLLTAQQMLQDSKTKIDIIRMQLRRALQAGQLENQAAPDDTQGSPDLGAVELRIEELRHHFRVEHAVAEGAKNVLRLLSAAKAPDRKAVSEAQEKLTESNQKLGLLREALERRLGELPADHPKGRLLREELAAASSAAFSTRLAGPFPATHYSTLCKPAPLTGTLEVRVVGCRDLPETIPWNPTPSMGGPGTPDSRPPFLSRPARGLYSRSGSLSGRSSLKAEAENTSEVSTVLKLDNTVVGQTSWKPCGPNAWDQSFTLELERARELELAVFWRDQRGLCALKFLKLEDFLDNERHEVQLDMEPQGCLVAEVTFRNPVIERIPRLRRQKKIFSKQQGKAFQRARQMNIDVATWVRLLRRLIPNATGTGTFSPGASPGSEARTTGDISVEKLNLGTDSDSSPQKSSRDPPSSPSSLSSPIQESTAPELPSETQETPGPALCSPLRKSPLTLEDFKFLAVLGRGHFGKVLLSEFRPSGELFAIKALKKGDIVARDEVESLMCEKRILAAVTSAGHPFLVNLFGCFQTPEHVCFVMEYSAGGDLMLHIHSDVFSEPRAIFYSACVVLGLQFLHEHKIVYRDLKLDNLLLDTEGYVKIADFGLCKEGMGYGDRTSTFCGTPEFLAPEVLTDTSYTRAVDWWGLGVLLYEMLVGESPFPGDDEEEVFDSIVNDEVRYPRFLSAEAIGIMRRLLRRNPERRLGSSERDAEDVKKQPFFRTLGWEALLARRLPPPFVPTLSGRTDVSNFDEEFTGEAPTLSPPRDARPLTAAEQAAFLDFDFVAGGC
# T1: DNA junction; chain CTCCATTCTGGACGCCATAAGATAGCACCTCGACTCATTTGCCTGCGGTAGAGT; chain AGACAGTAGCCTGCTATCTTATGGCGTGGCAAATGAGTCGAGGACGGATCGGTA; chain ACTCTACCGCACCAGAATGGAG; chain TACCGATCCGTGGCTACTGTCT
# UniProt Q16774, sequence (whole entry, unmodified, looked up): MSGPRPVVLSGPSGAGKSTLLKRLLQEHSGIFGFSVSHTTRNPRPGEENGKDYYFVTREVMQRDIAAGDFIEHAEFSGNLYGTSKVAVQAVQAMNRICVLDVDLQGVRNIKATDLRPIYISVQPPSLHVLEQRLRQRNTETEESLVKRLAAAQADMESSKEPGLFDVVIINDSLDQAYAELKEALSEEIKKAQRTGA
# UniProt O75030, sequence (1-296, unmodified, looked up): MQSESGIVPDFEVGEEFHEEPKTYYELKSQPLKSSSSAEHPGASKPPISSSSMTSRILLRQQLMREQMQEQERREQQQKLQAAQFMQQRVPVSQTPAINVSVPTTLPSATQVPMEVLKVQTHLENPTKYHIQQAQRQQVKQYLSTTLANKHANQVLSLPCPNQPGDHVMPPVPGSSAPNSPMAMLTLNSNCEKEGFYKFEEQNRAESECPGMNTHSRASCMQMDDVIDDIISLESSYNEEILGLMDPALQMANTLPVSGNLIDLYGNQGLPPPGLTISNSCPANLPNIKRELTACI
# UniProt P10276, sequence (whole entry, looked up): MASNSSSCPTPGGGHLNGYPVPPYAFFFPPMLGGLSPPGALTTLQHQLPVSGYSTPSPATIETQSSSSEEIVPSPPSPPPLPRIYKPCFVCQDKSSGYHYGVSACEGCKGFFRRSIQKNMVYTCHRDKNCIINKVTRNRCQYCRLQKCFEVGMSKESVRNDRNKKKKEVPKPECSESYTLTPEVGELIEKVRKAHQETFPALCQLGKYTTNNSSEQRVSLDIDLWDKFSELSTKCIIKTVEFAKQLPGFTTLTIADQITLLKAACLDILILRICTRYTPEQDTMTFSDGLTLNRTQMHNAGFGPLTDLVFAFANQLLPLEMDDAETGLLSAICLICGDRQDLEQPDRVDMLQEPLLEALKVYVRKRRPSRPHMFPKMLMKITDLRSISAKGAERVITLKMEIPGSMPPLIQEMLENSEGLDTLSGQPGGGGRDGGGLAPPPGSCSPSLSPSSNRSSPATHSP
# UniProt P51575, sequence (whole entry, unmodified, looked up): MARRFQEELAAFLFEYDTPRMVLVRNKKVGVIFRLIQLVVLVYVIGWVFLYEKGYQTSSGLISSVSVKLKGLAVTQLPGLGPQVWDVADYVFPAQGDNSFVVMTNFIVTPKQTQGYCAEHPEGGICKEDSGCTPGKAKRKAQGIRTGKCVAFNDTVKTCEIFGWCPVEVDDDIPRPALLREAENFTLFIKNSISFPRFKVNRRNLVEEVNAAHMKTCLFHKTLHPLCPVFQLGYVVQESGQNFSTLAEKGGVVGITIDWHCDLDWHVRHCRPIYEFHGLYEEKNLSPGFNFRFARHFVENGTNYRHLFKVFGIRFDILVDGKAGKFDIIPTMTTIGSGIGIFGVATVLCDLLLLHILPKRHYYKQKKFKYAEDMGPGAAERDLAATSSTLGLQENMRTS
# UniProt P08246, sequence (whole entry, looked up): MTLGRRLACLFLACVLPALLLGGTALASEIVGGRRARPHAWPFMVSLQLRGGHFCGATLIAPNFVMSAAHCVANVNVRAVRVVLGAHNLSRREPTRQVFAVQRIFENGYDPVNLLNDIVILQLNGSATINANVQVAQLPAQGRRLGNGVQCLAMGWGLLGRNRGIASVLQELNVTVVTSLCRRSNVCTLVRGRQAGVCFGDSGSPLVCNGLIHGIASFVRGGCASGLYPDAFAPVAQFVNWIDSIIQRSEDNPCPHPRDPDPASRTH
# UniProt Q01782, sequence (whole entry, looked up): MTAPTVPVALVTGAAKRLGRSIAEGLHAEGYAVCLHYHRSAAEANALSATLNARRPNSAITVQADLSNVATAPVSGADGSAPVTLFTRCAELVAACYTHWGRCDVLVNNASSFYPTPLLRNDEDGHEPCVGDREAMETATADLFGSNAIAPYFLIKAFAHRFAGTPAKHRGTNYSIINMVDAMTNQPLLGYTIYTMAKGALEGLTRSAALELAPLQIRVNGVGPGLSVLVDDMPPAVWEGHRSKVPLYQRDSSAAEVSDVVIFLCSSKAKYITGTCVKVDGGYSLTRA
SMILES,target,assay,test system,conditions,how to read,measurement,result
CC(=O)N[C@H](C(=O)N1C[C@H](O)C[C@H]1C(=O)NCc1ccc(-c2scnc2C)cc1)C(C)(C)SCCCCCCNC(=O)C[C@@H]1N=C(c2ccc(Cl)cc2)c2c(sc(C)c2C)-n2c(C)nnc21,"Bromodomain-containing protein 4, BD1 (BRD4, Homo sapiens, UniProt O60885)","binding, ITC",,"25 °C, compound in cell, protein in syringe",,−TΔS,8.7 ± 0.5 kcal/mol
CN1CCN(c2cc(-c3ccncc3)c(-c3ccc4ccccc4c3)nn2)CC1,"Prostaglandin E2 receptor EP2 subtype (PTGER2, Homo sapiens, UniProt P43116)","agonist, FLIPR",,12.5 µM,,activation,-1.1%
COc1cc(-c2cc(C(C)=O)n3ccccc23)c(OC)cc1Cn1ccnc1,"PHIP, BD2 (Homo sapiens, UniProt Q8WWQ0)",,,,,ΔTm,-0.5 °C
O=c1nc(SCc2cc(F)cc(C(F)(F)F)c2)nc(SCc2ccc3ccccc3n2)[nH]1,TOP2A,decatenation,,7.8 µM,,mean decatenated DNA,100%
O=C(O)c1ccc(Nc2ncc3c(n2)-c2ccc(Cl)cc2C(c2c(F)cccc2F)=NC3)cc1,SAPK3(h),kinase activity,,1 µM,,remaining activity,121%
CCCCCCCC/C=C\CCCCCCCC(=O)NCCc1ccc(O)c(O)c1,"Transient receptor potential cation channel subfamily V member 1 (Trpv1, Mus musculus, UniProt Q704Y3, Y555F)","ion current, agonist, whole-cell patch clamp",,Y555F,reference: 3 mM 2-APB,maximal open probability,0.27 ± 0.06
O=c1nc(SCc2cc(F)cc(C(F)(F)F)c2)nc(SCc2ccc3ncsc3c2)[nH]1,TOP2A,decatenation,,125 µM,,mean decatenated DNA,0%
NNc1ccc2ccccc2c1,"Secernin-3 (Homo sapiens, UniProt Q0VDG4)",gel-based ABPP,HEK-293T lysate,,reference: IC50 SCRN2 over Secernin-3,selectivity ratio,10 fold
CC[n+]1c(-c2ccccc2)c2cc(N)ccc2c2ccc(N)cc21,"T1, DNA junction",fluorescence enhancement,,"20 °C, Mg2+ 12.5 mM, ethidium displacement",,binding,binds
O=C(O)c1ccc([N+](=O)[O-])cc1,BEST2,whole-cell patch clamp,HEK293 transiently expressing channel,"concentration not given, membrane potential -60 mV",,current density,-66.5 pA/pF and -219 pA/pF and -159 pA/pF and -161 pA/pF and -180 pA/pF
CCCCCCCC(=O)c1cc(OC)c(OC)c(OC)c1CC(=O)OCC,"Retinoic acid receptor alpha (RARA, Homo sapiens, UniProt P10276)","reporter gene, Gal4 hybrid reporter",,10 µM,reference: vehicle,activation,0.76 fold
CC(C)C(=O)Nc1n[nH]c2cc(-c3cccc(NS(=O)(=O)C4CC4)c3)ccc12,"Phosphatidylinositol 4-phosphate 5-kinase type-1 gamma (PIP5K1C, Homo sapiens, UniProt O60331)",ADP-Glo,,"3.33 µM, with: 10 µM ATP",,ADP produced,1.46 µM
CCOc1ccc(NC(=O)O[C@@H](Cn2nc(C(C)C)cc2C(C)C)C(C)C)cc1,"Neuronal acetylcholine receptor; alpha4/beta2, (α4)2(β2)3 stoichiometry (Homo sapiens, UniProt P17787+P43681)",two-electrode voltage clamp,Xenopus oocytes,"1 µM, high-sensitivity stoichiometry",,increase in ACh efficacy,~10 fold
CC1(C)CC2(C)OC(=O)NC2(C)c2ccccc21 (centres unmarked),SETDB1 triple tudor domain,"binding, affinity selection mass spectrometry",,,reference: other proteins in batch,fold enrichment,0.714
O=c1nc(SCc2ccc(C(F)(F)F)cc2)nc(SCc2ccc3sccc3c2)[nH]1,TOP2A,decatenation,,"7.8 µM, replicate 1",,decatenated DNA,100%
CC(=O)N[C@@H](CSC(=O)[C@]1([C@@H](O)C(C)C)NC(=O)[C@H](C)[C@@H]1O)C(=O)O,"Proteasome Macropain subunit MB1 (PSMB5, Homo sapiens, UniProt P28074)",proteolytic activity,human islets,"concentration not given, 24 h, with: Suc-LLVY-AMC substrate",,20S proteasome activity,decreased
O=c1[nH]c(=O)c2nc(O)c(O)nc2[nH]1,isomerase LA1_0151/LA1_0152 (Cupriavidus sp. LA-1),substrate,,"pH 7.5, 30 °C",,Km,116 ± 3 µM
CC(=O)N1CCN(CCOc2ccc(C3CCN(C4=Nn5c(nnc5C(F)(F)F)CC4)CC3)cc2)CC1,"Androgen receptor (AR, Homo sapiens, UniProt P10275)","antagonist, nuclear translocation",,100 µM,reference: control,response,> 75%
CC(C)c1ccc(CSc2nc(SCc3ccc4sccc4c3)[nH]c(=O)n2)cc1,TOP2A,decatenation,,"125 µM, replicate 1",,decatenated DNA,0.15%
c1coc(-c2n[nH]cc2-c2ccnc3ccccc23)c1,"Cell cycle protein kinase DBF2 (DBF2, Candida albicans, UniProt Q59KM8)","kinase binding, MIB/MS competition",Candida albicans lysate,10 µM,"reference: DMSO, negative = stronger binding",log2 fold change,0.17
CCc1cnn2c(NCc3ccc[n+]([O-])c3)cc(N3CCCC[C@H]3CCO)nc12,"Bromodomain-containing protein 4 (BRD4, Homo sapiens, UniProt O60885)","19F NMR, refers to: tyrosine 97",,24 µM,reference: free protein,chemical shift change,-0.037 ppm
COc1ccc(Oc2ccc(CN(Cc3ccccc3)Cc3cnc4nc(N)nc(N)c4n3)cc2)cc1,"Pteridine reductase 1 (Leishmania major, UniProt Q01782)",,,hDHFR weight 10,"reference: LmPTR1, LmDHFR over hDHFR, 1.0 selective, 0.0 non-selective",partition index,0.99
COCCOc1ccc2c(c1)ncn2-c1ccc2cccc(N3CCC(N)CC3)c2n1,PKN1,inhibitor,,,,Hill slope,-1.07
O=C(O)C1=CCNCC1,BEST2,whole-cell patch clamp,HEK293 transiently expressing channel,"concentration not given, membrane potential 20 mV",,current density,40 pA/pF and 8.03 pA/pF and 37.9 pA/pF and 82.4 pA/pF and 51.2 pA/pF
COCCC(=O)N1CCC(Oc2ccccc2)C1 (centres unmarked),SETDB1 triple tudor domain,"binding, affinity selection mass spectrometry",,,reference: other proteins in batch,log fold enrichment,-0.125
Nc1ccc(C(=O)O)cc1,BEST2,whole-cell patch clamp,HEK293 transiently expressing channel,"concentration not given, membrane potential 20 mV",,current density,46.5 pA/pF and 65.1 pA/pF and 18 pA/pF and 74.5 pA/pF and 34.6 pA/pF and 59.4 pA/pF
Cc1ccccc1C1CC(=O)c2c(C)nc(N)nc2C1 (centres unmarked),"DNA (cytosine-5)-methyltransferase 3A, PWWP domain (DNMT3A, Homo sapiens, UniProt Q9Y6K1)","binding, affinity selection mass spectrometry",,,reference: other proteins in batch,log fold enrichment,-0.0483
O=C(O)c1cc2ccc(C#CC3(O)CCCCC3)cc2n1-c1cccc(Cl)c1,"Microphthalmia-associated transcription factor, residues 1-296 (Homo sapiens, UniProt O75030)",isothermal titration calorimetry,,25 °C,,-TΔS,4.45 kcal/mol and 1.49 kcal/mol
CC(C)N(CCC(=O)c1ccc2ccccc2c1)Cc1ccccc1,"Protein-glutamine gamma-glutamyltransferase (TGM2, Homo sapiens, UniProt P21980)","enzyme activity, inhibitor",,"concentration not given, 0.02% Triton X-100",,inhibitory potency,no effect
Nc1ncnc2c1ncn2[C@@H]1O[C@H](COP(=O)(O)CP(=O)(O)OP(=O)(O)O)[C@@H](O)[C@H]1O,"P2X purinoceptor 1 (P2RX1, Homo sapiens, UniProt P51575, K136A)",saturation binding,HEK293,130 nM,,specific binding,3680 CCPM and 3440 CCPM
O=C(OC[C@H]1O[C@@H](OC(=O)c2cc(OS(=O)(=O)[O-])c(O)c(OS(=O)(=O)[O-])c2)[C@H](OC(=O)c2cc(OS(=O)(=O)[O-])c(O)c(OS(=O)(=O)[O-])c2)[C@@H](OC(=O)c2cc(OS(=O)(=O)[O-])c(O)c(OS(=O)(=O)[O-])c2)[C@@H]1OC(=O)c1cc(OS(=O)(=O)[O-])c(O)c(OS(=O)(=O)[O-])c1)c1cc(OS(=O)(=O)[O-])c(O)c(OS(=O)(=O)[O-])c1.[Na+].[Na+].[Na+].[Na+].[Na+].[Na+].[Na+].[Na+].[Na+].[Na+],"Neutrophil elastase (ELANE, Homo sapiens, UniProt P08246)","elastin cleavage, inhibitor, elastin-Congo red",,concentration not given,,duration of full inhibition,> 48 h
c1ccc(CCCCCOCCc2ccc3c(c2)CCCN3)cc1,"ATP2A2 (Sus scrofa, UniProt P11607)","ATPase Vmax increase, activator",pig microsomes,0.1 to 50 µM,reference: vehicle,Emax,~40%
Cc1nc(CSc2nc(SCc3cc(F)cc(C(F)(F)F)c3)nc(=O)[nH]2)cs1,TOP2A,decatenation,,"31.25 µM, replicate 1",,decatenated DNA,94.5%
CC1=C(Nc2cccc(C3(NCCc4ccc(C(F)(F)F)c(Cl)c4)CCC3)c2)C(=O)N(C2CCC(=O)NC2=O)C1=O (centres unmarked),"Cereblon/Ikaros (Homo sapiens, UniProt Q13422+Q96SW2)","protein degradation, degrader, HiBiT luminescence",Jurkat,,,Dmax,53%
Nc1nc2c(ncn2[C@@H]2O[C@H](COP(=O)(O)O)[C@@H](O)[C@H]2O)c(=O)[nH]1,"GUK1 (Homo sapiens, UniProt Q16774, D103A)","enzyme activity, NADH-coupled",,500 µM,,reaction rate,13.5 s⁻¹ and 13.8 s⁻¹ and 13.7 s⁻¹
CC1=C(/C=C/C(C)=C/C=C/C(C)=C/C(=O)O)C(C)(C)CCC1,"Cellular retinoic acid-binding protein 2 (CRABP2, Homo sapiens, UniProt P29373, R133K)",tryptophan fluorescence quenching,,concentration not given,"reference: R132K versus wild type, higher = weaker binding",binding affinity fold decrease,30 fold
C=CC(=O)N1CCC(COCC(=O)N2CCN(c3nc(-c4cnc(N)nc4C(F)F)nc(N4CCOC[C@@H]4C)n3)CC2)CC1,"Phosphatidylinositol 3-kinase C2 domain-containing subunit gamma (PIK3C2G, Homo sapiens, UniProt O75747)",KINOMEscan,,1 µM,,remaining binding,79%
Cl.Cl.O=S(=O)(NCCNC/C=C/c1ccc(Br)cc1)c1cccc2cnccc12,PKN1,inhibitor,,,,Hill slope,-0.839
O=c1nc(SCc2cc(F)cc(C(F)(F)F)c2)nc(SCc2nc3ccccc3[nH]2)[nH]1,TOP2A,decatenation,,125 µM,,mean decatenated DNA,0%
N#Cc1ccc2c(-c3ccncc3)c(-c3ccc(F)cc3)nn2c1,"Mitogen-activated protein kinase MKC1 (MKC1, Candida albicans, UniProt P43068)","kinase binding, competitor, MIB/MS competition, refers to: MKC1",Candida albicans cell lysate,10 µM,reference: DMSO,log2 fold change,0.433
COc1ccc(C(=O)/C=C/c2cccc(-c3cccc(-c4ccc(CNCC(C)(C)C(N)=O)c(OC)n4)c3C)c2)cc1,"Programmed cell death 1 ligand 1 (CD274, Homo sapiens, UniProt Q9NZQ7)","degrader, western blot",HL-60,1 µM,,degradation,< 5%

# A few entries again:
SMILES,target,assay,test system,conditions,how to read,measurement,result
COCCC(=O)N1CCC(Oc2ccccc2)C1 (centres unmarked),SETDB1 triple tudor domain,"binding, affinity selection mass spectrometry",,,reference: other proteins in batch,log fold enrichment,-0.125
Cc1nc(CSc2nc(SCc3cc(F)cc(C(F)(F)F)c3)nc(=O)[nH]2)cs1,TOP2A,decatenation,,"31.25 µM, replicate 1",,decatenated DNA,94.5%
